Assay results collected from several papers.
A part holds a random share of what one study measured. Substitutions count along the parent as printed.

Sample 1
Target: CCNA1, cyclin fold, Cln2 fusion (human)
Technique: yeast growth competition, sequencing
Matrix: yeast
Setting: weak parent motif
Relative to: not given
Reading: higher = stronger binding
Measurement: normalised enrichment score
Starting sequence: PKN2 docking peptide (human); VSAVRKLDFSDTM; partner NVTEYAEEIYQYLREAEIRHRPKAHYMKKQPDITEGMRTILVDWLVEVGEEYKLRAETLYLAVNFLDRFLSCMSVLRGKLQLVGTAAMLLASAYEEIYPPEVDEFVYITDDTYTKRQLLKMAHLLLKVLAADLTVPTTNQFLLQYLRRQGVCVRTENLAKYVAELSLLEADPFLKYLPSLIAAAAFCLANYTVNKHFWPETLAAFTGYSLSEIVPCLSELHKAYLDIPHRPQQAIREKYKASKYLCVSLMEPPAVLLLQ
VSAVRKLDLSDTM [F9L]: 0.0271
VSSVRKLDFSDTM [A3S]: 0.536
VSAVRELDFSDTM [K6E]: 0.607
VSAERKLDFSDTM [V4E]: 0.161
VSAVRKLDFSDCM [T12C]: 1.79
VSAVPKLDFSDTM [R5P]: -0.0783
VSDVRKLDFSDTM [A3D]: -0.292
VSAVRTLDFSDTM [K6T]: 0.391

Sample 2
Target: Interferon regulatory factor 3, full length, phosphomimetic (IRF3, Homo sapiens, UniProt Q14653, residues 1-427, S386D/S396D/S398D/S402D/T404D/S405D)
Technique: protein-binding microarray
Form: double-stranded DNA, one strand shown
Matrix: in vitro
Tested at: 2540 nM top
Setting: 60-bp whole probe
Together with: salmon DNA 0.4 mg/ml
Relative to: random background probes
Reading: higher = stronger binding
Measurement: fitted relative affinity
All sequences stand within: GCCTAGCAC … GTCTTGATTCGCTTGACGCTGCTG
Residues (chain): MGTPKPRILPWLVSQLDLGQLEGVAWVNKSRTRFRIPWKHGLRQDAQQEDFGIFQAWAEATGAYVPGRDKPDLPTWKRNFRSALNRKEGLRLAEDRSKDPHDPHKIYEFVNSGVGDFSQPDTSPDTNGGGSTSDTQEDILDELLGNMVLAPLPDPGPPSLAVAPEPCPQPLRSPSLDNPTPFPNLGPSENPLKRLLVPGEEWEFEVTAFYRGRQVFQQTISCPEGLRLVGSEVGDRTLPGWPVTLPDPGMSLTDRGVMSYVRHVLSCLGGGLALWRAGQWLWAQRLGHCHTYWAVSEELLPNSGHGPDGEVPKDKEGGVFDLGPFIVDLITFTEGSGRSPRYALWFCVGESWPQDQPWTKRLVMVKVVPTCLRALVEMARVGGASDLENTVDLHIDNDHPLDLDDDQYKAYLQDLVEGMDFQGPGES
TGAGAACTGGGGACTGGATTAGTGCTA: -1.08 z-score
TCAAAAATCTTTGTTGGAACTGTGCTA: -0.267 z-score
GGAAGCTTCTTTTTTATTCTGTGCTAG: 0.765 z-score
TTAGGTTTCGGGCATCGGTTAGTGCTA: 2.05 z-score
GACGATATCGGCACTGGAGACGTGCTA: -0.163 z-score
GACAAACTGAGTTTCGAGACGTGCTAG: 1.3 z-score
GACGATTTCAGATTCGAGACGTGCTAG: 3.06 z-score
TTAGGACTGGACTTTCGGTAAGTGCTA: 0.334 z-score
TTTCCTTTATGTACTCTCTACGTGCTA: 8.68 z-score

Sample 3
Target: PABPC1L2, full length, GST fusion (mouse, UniProt A0ABA7IW68)
Technique: RNAcompete
Form: RNA
Matrix: in vitro
Tested at: 20 nM
Setting: 7-mer, probes averaged, single round
Relative to: mean of 7-mers
Reading: higher = stronger binding
Measurement: 7-mer Z-score
Target sequence (chain): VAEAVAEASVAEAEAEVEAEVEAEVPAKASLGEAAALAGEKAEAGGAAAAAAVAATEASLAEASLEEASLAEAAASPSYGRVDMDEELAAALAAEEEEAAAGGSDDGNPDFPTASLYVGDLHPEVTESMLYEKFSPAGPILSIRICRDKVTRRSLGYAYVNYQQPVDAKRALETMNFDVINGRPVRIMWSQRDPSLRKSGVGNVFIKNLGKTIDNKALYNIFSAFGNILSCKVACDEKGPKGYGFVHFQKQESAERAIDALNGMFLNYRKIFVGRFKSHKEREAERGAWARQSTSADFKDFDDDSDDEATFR
UAGCGCG: -0.231
UAUCCCC: -0.38
UAUUGAC: -0.132
CUGUGGU: -0.237
GCCCCCU: -0.267
UUCAGCA: -0.0663
GUUAGGC: -0.0971
UUGGCCA: -0.217
AGUACGU: -0.208
GUCUGUC: -0.235

Other studies, line by line
PhoQ, residues 284 288 289 292 302 303 SQSLSM
fold induction (PhoP, residues 12 14 15 18 19 TQAIL (Escherichia coli, UniProt P23836); Sort-seq, item: YFP reporter; E. coli; PhoQ-PhoP variant library, together with: 10 µM Mg2+; relative to: high Mg2+ state, higher = stronger signaling): 19.2

For quick reference, copied from above (sample 3):
UAUCCCC: -0.38
GCCCCCU: -0.267
